{"data": "Measured values from different studies", "note": "Each line is one published result; not all experiments were run side by side. ± gives the spread as reported."}
{"SMILES": "N=C(N)NCc1ccc(C(=O)NCCCC[C@H](NC(=O)N[C@@H](CCC(=O)O)C(=O)O)C(=O)O)cc1[131I]", "species": "SCID mouse, PC-3 xenografts", "medium": "spleen", "time": "1 h", "tissue uptake [%ID/g]": "21.1 ± 4.2"}
{"SMILES": "C=Cc1cc(O)cc2nc(-c3ccc(O)c([76Br])c3)oc12", "species": "female C57BL/6 mouse", "medium": "muscle", "time": "3 h", "notes": "high dose", "tissue uptake [%ID/g]": "0.05 ± 0.01"}
{"SMILES": "CCNc1cc2[o+]c3cc(NCC)c(C)cc3c(-c3ccccc3C(=O)OCCOCC[18F])c2cc1C", "species": "rat", "medium": "gut", "time": "120 min", "tissue uptake [%ID/g]": "1.07 ± 0.28"}
{"SMILES": "COc1ccc(C)cc1NC(=O)OC1CC2CCCC(C1)N2Cc1ccc(CC[18F])cc1 (stereo not drawn)", "species": "BALB/c mice, EMT6 tumour", "medium": "lung", "time": "1 h", "tissue uptake [%ID/g]": "8.73 ± 2.54"}
{"SMILES": "CN[C@](C)(C[18F])C(=O)O", "species": "SCID mouse U87 xenograft", "medium": "heart", "time": "15 min", "notes": "post injection", "tissue uptake [%ID/g]": "3.5 ± 0.4"}
{"SMILES": "N=C(N)NCc1ccc(C(=O)NCCCC[C@H](NC(=O)CCCCCCC(=O)NCCCC[C@H](NC(=O)N[C@@H](CCC(=O)O)C(=O)O)C(=O)O)C(=O)O)cc1[211At]", "species": "SCID mouse, PC-3 xenografts", "medium": "kidneys", "time": "21 h", "tissue uptake [%ID/g]": "4.38 ± 3.46"}
{"SMILES": "O=C(O)CC[C@H](NC(=O)O[C@@H](CCCCNC(=O)c1ccc([18F])cc1)C(=O)O)C(=O)O", "species": "mouse, PC-3 PIP/flu xenografts", "medium": "liver", "time": "180 min", "tissue uptake [%ID/g]": "4.62 ± 3.8"}
{"SMILES": "N=C(N)NCc1ccc(C(=O)NCCCC[C@H](NC(=O)CCCCCCC(=O)NCCCC[C@H](NC(=O)N[C@@H](CCC(=O)O)C(=O)O)C(=O)O)C(=O)O)cc1[131I]", "species": "SCID mouse, PC-3 xenografts", "medium": "thyroid", "time": "21 h", "tissue uptake [%ID/g]": "0.42 ± 0.35"}
{"SMILES": "CN(C)c1ccc(C(=O)NCCCCN2CCN(c3ccccc3O[11CH3])CC2)cc1", "species": "male Sprague Dawley rat", "medium": "kidney", "route": "iv", "time": "30 min", "relative to": "untreated", "tissue uptake [%ID/g]": 1.96}
{"note": "Repeated from above:"}
{"SMILES": "N=C(N)NCc1ccc(C(=O)NCCCC[C@H](NC(=O)CCCCCCC(=O)NCCCC[C@H](NC(=O)N[C@@H](CCC(=O)O)C(=O)O)C(=O)O)C(=O)O)cc1[211At]", "species": "SCID mouse, PC-3 xenografts", "medium": "kidneys", "time": "21 h", "tissue uptake [%ID/g]": "4.38 ± 3.46"}
